Results pooled from the literature.
A part holds a random share of what one study measured.
UniProt P49761, sequence (whole entry, looked up): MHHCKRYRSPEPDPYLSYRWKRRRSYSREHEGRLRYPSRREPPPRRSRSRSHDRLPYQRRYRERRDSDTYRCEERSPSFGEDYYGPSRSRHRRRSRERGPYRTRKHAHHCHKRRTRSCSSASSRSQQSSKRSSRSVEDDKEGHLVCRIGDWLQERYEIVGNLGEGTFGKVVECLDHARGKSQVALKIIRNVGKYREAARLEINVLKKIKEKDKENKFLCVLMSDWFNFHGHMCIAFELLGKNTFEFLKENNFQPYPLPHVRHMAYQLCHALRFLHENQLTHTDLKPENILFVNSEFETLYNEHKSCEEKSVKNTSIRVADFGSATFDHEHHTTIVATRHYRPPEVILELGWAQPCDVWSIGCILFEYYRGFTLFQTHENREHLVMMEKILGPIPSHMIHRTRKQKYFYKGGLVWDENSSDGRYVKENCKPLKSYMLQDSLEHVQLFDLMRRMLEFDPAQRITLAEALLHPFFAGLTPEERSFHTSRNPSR
UniProt Q9NWZ3, sequence (whole entry, looked up): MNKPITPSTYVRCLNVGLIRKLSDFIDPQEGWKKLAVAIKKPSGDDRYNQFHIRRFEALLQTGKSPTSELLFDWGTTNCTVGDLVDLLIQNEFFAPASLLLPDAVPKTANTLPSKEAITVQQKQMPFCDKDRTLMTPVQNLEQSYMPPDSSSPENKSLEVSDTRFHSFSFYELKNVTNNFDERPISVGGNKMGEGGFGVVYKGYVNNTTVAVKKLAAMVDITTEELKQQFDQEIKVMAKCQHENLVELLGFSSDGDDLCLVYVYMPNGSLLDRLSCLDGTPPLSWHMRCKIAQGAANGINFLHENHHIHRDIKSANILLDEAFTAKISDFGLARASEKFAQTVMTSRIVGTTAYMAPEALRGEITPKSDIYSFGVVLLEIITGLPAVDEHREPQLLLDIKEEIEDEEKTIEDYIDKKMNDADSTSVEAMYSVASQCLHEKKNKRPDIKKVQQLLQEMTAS
UniProt Q6PHR2, sequence (whole entry, looked up): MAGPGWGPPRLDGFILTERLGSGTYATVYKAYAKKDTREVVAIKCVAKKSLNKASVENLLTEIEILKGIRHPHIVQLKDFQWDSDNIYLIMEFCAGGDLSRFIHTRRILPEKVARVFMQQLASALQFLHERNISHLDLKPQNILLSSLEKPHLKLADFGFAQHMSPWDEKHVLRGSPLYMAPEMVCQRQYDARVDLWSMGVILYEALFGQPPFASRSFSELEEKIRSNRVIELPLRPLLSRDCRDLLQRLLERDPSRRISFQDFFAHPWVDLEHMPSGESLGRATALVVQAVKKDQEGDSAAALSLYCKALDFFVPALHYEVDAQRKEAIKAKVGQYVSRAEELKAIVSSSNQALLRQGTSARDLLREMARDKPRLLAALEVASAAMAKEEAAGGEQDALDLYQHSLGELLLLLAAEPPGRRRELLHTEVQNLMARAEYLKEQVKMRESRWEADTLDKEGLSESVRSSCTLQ
UniProt Q16816, sequence (whole entry, looked up): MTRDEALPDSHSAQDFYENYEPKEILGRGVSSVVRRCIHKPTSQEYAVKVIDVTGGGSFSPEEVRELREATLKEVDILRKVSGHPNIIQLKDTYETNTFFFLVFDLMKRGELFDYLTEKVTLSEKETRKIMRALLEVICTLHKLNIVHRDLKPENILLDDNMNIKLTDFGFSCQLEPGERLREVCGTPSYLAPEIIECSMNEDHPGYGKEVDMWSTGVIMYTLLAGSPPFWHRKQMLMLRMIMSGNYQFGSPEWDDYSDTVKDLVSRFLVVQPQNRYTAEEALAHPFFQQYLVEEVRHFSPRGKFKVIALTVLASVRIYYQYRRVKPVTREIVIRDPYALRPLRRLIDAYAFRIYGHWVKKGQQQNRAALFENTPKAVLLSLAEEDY
UniProt O96013, sequence (whole entry, looked up): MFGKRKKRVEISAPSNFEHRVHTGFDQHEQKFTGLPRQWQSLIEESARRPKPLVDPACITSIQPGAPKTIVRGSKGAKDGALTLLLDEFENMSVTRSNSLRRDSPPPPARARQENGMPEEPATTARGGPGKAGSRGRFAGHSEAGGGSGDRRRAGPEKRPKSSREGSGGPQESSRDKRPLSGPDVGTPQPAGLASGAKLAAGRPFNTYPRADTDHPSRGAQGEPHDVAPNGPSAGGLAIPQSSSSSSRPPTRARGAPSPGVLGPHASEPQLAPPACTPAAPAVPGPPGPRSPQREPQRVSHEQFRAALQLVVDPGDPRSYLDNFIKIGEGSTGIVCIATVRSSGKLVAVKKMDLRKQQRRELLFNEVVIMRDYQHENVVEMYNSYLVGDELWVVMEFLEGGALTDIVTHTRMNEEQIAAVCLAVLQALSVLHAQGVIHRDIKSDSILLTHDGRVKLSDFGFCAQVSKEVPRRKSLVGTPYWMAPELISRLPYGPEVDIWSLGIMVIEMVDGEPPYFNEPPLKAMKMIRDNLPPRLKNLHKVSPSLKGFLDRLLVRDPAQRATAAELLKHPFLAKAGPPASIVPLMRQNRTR
UniProt P35590, sequence (whole entry, looked up): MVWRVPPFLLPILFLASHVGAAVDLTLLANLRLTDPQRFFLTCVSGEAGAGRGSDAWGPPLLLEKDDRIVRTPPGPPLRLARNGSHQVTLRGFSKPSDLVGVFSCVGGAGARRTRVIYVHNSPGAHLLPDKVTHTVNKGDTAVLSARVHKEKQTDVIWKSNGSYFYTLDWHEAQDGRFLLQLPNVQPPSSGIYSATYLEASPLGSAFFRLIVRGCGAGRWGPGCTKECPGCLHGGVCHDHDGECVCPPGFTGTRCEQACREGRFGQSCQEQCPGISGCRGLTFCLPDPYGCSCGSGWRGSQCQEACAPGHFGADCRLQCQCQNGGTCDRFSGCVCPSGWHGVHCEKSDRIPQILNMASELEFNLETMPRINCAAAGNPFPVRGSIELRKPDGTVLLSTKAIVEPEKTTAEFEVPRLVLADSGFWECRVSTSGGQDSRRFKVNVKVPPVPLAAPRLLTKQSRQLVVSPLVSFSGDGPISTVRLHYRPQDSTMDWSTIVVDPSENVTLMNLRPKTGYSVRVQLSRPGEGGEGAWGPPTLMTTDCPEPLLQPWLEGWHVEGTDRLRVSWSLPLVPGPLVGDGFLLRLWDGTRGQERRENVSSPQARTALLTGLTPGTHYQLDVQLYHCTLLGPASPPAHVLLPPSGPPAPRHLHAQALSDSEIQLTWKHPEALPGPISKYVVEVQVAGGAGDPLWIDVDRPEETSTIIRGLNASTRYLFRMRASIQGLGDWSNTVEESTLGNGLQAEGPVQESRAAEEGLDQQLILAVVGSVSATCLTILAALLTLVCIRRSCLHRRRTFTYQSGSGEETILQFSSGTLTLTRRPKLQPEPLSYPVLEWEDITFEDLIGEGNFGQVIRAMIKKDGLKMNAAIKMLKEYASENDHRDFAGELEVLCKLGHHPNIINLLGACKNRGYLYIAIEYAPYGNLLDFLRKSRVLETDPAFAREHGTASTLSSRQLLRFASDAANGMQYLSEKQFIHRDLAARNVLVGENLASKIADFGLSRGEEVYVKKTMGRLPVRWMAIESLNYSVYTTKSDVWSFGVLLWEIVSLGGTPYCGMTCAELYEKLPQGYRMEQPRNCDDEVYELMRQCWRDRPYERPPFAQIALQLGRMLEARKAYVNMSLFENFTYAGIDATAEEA
UniProt P00519, sequence (whole entry, unmodified, looked up): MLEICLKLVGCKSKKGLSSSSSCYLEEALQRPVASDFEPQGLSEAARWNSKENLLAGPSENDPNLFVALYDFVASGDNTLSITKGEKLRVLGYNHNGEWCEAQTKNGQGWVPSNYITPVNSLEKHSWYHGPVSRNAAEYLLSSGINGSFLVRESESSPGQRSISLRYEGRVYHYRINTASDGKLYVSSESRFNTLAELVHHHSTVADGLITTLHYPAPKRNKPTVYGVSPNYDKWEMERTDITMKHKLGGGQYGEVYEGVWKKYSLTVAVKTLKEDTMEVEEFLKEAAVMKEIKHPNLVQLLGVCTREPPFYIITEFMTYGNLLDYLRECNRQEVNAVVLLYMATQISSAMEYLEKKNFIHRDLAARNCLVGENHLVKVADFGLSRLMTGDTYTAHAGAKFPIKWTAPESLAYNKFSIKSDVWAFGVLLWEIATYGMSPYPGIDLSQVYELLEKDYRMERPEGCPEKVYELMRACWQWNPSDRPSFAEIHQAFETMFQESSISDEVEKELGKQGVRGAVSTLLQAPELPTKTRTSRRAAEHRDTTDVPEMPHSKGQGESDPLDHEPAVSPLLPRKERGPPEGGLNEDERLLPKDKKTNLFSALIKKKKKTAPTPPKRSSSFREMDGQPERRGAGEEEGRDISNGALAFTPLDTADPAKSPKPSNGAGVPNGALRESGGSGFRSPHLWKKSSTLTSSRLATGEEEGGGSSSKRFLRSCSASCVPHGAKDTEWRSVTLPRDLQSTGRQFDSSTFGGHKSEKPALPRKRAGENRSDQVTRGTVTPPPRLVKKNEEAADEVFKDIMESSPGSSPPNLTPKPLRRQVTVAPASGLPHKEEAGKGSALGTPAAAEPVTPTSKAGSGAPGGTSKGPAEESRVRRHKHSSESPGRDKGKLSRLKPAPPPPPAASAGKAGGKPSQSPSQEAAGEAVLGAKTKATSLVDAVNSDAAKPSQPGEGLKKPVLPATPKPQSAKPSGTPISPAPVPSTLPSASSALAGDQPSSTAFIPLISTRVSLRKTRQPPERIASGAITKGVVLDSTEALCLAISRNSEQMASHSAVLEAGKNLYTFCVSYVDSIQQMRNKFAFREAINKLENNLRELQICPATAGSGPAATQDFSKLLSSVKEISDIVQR

Set 1
Target: Serine/threonine-protein kinase pim-2 (PIM2, Homo sapiens, UniProt Q9P1W9)
UniProt Q9P1W9, sequence (whole entry, looked up): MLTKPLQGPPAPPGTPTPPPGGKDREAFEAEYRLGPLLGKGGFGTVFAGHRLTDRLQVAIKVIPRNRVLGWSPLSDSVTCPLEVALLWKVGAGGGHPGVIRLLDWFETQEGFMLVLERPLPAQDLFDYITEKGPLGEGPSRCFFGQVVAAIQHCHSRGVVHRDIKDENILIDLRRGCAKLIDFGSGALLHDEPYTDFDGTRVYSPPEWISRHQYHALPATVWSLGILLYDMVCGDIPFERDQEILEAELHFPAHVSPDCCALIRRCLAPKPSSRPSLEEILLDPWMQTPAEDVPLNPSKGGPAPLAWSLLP
Read-out: enzyme activity
Mode: inhibitor
Tested at: 0.5 µM
Reference: control
| SMILES | remaining activity [%] |
| --- | --- |
| COc1cc2ncnc(Nc3ccc(F)c(Cl)c3)c2cc1OCCCN1CCOCC1 | 96.2 |
| CN(C)c1ccc(C=C2C(=O)Nc3ccccc32)cc1 | 82.4 |
| COc1cc2ncnc(Nc3ccc(Oc4ccccc4)cc3)c2cc1OC | 107 |
| O=C1NC(=O)C(c2cn(CCCn3ccnc3)c3ccccc23)=C1Nc1ccccc1 | 102 |
| O=C1NC(=O)C(c2cn(CCCO)c3ncccc23)=C1c1cnccn1 | 92.7 |
| NCCNc1ncc(C(N)=O)c(Nc2cccc(C(F)(F)F)c2)n1 | 98.4 |
| CO[C@H]1C[C@@H]2CC[C@@H](C)[C@@](O)(O2)C(=O)C(=O)N2CCCC[C@H]2C(=O)O[C@H]([C@H](C)C[C@@H]2CC[C@@H](O)[C@H](OC)C2)CC(=O)[C@H](C)/C=C(\C)[C@@H](O)[C@@H](OC)C(=O)[C@H](C)C[C@H](C)/C=C/C=C/C=C/1C | 102 |
| CCOC(=O)c1c(C)[nH]c(/C=C2\C(=O)Nc3ccccc32)c1C | 97.7 |
| Cc1cccc(-c2[nH]c(C(C)(C)C)nc2-c2ccc3c(c2)OCO3)n1 | 99.7 |
| N#CC(C#N)=C(N)/C(C#N)=C/c1ccc(O)cc1 | 88.2 |
| OCC(O)CCON=C1C(c2c(O)[nH]c3ccccc23)=Nc2ccccc21 (stereo not shown) | 99.5 |
| Cc1nc(-c2ccccc2)c(-c2ccncc2)o1 | 110 |
| O=C(O)c1ccc2c3c1cccc3c(=O)n1c3ccccc3nc21 | 41.7 |
| O=c1c2ccccc2[nH]c(=S)n1CCN1CCC(=C(c2ccc(F)cc2)c2ccc(F)cc2)CC1 | 128 |

Set 2
SMILES: CN([C@@H]1CCc2c(CC(=O)O)c3ccccc3n2C1)S(=O)(=O)c1ccc(F)cc1
Technique: competition with immobilised ligand
Tested at: 1 µM
| target | read-out | remaining binding [%] |
| --- | --- | --- |
| Phosphorylase b kinase gamma catalytic chain, skeletal muscle/heart isoform (PHKG1, Homo sapiens, UniProt Q16816) | cell-free assay | 100 |
| Tyrosine-protein kinase receptor Tie-1 (TIE1, Homo sapiens, UniProt P35590) | cell-free assay | 89 |
| Serine/threonine-protein kinase ULK3 (ULK3, Homo sapiens, UniProt Q6PHR2) | cell-free assay | 80 |
| Interleukin-1 receptor-associated kinase 4 (IRAK4, Homo sapiens, UniProt Q9NWZ3) | cell-free assay | 93 |
| Tyrosine-protein kinase ABL1, phosphorylated (ABL1, Homo sapiens, UniProt P00519, E255K) | binding | 90 |
| Dual specificity protein kinase CLK3 (CLK3, Homo sapiens, UniProt P49761) | cell-free assay | 97 |
| Serine/threonine-protein kinase PAK 4 (PAK4, Homo sapiens, UniProt O96013) | cell-free assay | 100 |

Set 3
Host: human
Sample: microsomes or S9
Tested at: 2 µM
Time: 0.5 h
| SMILES | remaining compound [%] |
| --- | --- |
| CCOc1cc(=O)n2c(c1C(=O)NCc1ccccn1)CCCCC2 | 92.3 |
| CNC(=O)CC1CCOC2(CCN(C(=O)C3CCC3)CC2)C1 (stereo not shown) | 92.4 |
| Cc1cc(NNS(=O)(=O)c2cccs2)n2ncnc2n1 | > 100 |
| O=C(C1CCc2n[nH]c(=O)n2C1)N1CCc2ccc(F)c(F)c2C1 (stereo not shown) | 93.8 |
| COc1ccc(/C=C(/C)c2nc(C)c(-c3ccccc3)c(O)n2)cc1 | 55.5 |
| CCOC(=O)c1ccc(NC2C=CC(=O)C2Nc2ccc(C(=O)OCC)cc2)cc1 (stereo not shown) | 0.449 |

Set 4
Cell line: A-375
Tested at: 100 µM
Time: 36 h
| SMILES | viability |
| --- | --- |
| CCCNC(C)C(=O)Nc1ccccc1C (stereo not shown) | 109% |
| OC(CCN1CCCCC1)(c1ccccc1)C1C[C@@H]2C=C[C@H]1C2 (stereo partly shown) | 78.5% |
| Cc1onc(-c2ccccc2)c1-c1ccc(S(N)(=O)=O)cc1 | 75.3% |
| O=C(O)c1cccnc1Nc1cccc(C(F)(F)F)c1 | 95.9% |
| c1cc(CN2CCCNCCNCCCNCC2)ccc1CN1CCCNCCNCCCNCC1 | 101% |
| CCC(C)n1ncn(-c2ccc(N3CCN(c4ccc(OC[C@H]5CO[C@](Cn6cncn6)(c6ccc(Cl)cc6Cl)O5)cc4)CC3)cc2)c1=O (mixture of isomers) | 102% |
| CC(N)[C@]12C[C@H]3C[C@H](C[C@H](C3)C1)C2 (stereo partly shown) | 105% |
